Results of several laboratories.
Each numbered part is a random draw from the data of one study; scales do not carry over between parts. Changes are numbered by the printed parent chain.

Block 1
Target: ABI1, truncated, D143A, DHFR fusion (Arabidopsis thaliana)
Method: DHFR PCA, deep sequencing
Sample: yeast
Setting: methotrexate growth selection, single substitutions
With: (+)-ABA 58 µM
Relative to: wild-type fitted maximum
Reading: higher = stronger binding
Parent: PYL1, truncated, DHFR fusion (Arabidopsis thaliana); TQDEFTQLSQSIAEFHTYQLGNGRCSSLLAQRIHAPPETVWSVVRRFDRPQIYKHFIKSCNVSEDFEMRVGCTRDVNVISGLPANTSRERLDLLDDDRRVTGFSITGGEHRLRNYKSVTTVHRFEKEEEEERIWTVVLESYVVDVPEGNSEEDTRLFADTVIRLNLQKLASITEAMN
For `D65W`, “relative binding score” read 62.2%.
`L166D` — result for “relative binding score”: 3.18%.
`S87H`: “relative binding score” 19.3%.
For `V43D`, “relative binding score” read -14.6%.
`S27M` — result for “relative binding score”: 31.4%.
`N165E` — result for “relative binding score”: 0.957%.
Under “relative binding score”, `Y141V` is recorded as -4.64%.
`N85M` — result for “relative binding score”: 87.4%.
`V78A`: “relative binding score” 42.4%.
Under “relative binding score”, `N61Q` is recorded as 94.3%.
For `E174T`, “relative binding score” read 71%.
For `F5W`, “relative binding score” read 93%.
For `D75M`, “relative binding score” read 88.3%.
For `K126P`, “relative binding score” read 103%.
For `T1K`, “relative binding score” read 89.2%.
`E125K` — result for “relative binding score”: 93.3%.
`D65P` — result for “relative binding score”: 92.4%.
`F47N`: “relative binding score” 9.36%.
`S63E` — result for “relative binding score”: 84.6%.
`I12Y` — result for “relative binding score”: 37.1%.
Under “relative binding score”, `L29W` is recorded as 16.2%.
For `V118Y`, “relative binding score” read 26.5%.
For `V121M`, “relative binding score” read 25%.

Block 2
Target: CCNE1, cyclin fold, Cln2 fusion (human)
Method: yeast growth competition, sequencing
Sample: yeast
Setting: weak parent motif
Relative to: not given
Reading: higher = stronger binding
Parent: RB1 docking peptide (human); PKPLKKLRFDIEG
For `PKPLKKLRFDIEA [G13A]`, “normalised enrichment score” read 0.685.
`PKPLKMLRFDIEG [K6M]`: “normalised enrichment score” 0.0281.
`PFPLKKLRFDIEG [K2F]` — result for “normalised enrichment score”: 0.888.
For `CKPLKKLRFDIEG [P1C]`, “normalised enrichment score” read 1.03.
`PDPLKKLRFDIEG [K2D]` — result for “normalised enrichment score”: -0.217.
For `PKPLKKLRKDIEG [F9K]`, “normalised enrichment score” read 0.673.
`PKPLKCLRFDIEG [K6C]`: “normalised enrichment score” 0.5.
Under “normalised enrichment score”, `PKPLKKLRFDISG [E12S]` is recorded as 0.634.
`PKPLKKLTFDIEG [R8T]` — result for “normalised enrichment score”: 0.873.
Under “normalised enrichment score”, `PKPLKKLRFDING [E12N]` is recorded as 0.0283.
Under “normalised enrichment score”, `PKPLKKLRFQIEG [D10Q]` is recorded as 0.0829.
Under “normalised enrichment score”, `PKHLKKLRFDIEG [P3H]` is recorded as -0.535.
`PKGLKKLRFDIEG [P3G]`: “normalised enrichment score” 0.347.
Under “normalised enrichment score”, `PKALKKLRFDIEG [P3A]` is recorded as 0.589.
`PKSLKKLRFDIEG [P3S]`: “normalised enrichment score” 1.08.
Under “normalised enrichment score”, `PCPLKKLRFDIEG [K2C]` is recorded as 0.612.
Under “normalised enrichment score”, `PKPLKKLRFIIEG [D10I]` is recorded as -0.831.
`PKPLKKLRFVIEG [D10V]` — result for “normalised enrichment score”: 0.17.
For `PKPLKKIRFDIEG [L7I]`, “normalised enrichment score” read 0.438.
Under “normalised enrichment score”, `PKPLVKLRFDIEG [K5V]` is recorded as -0.338.
`PKPLKKLRFDCEG [I11C]` — result for “normalised enrichment score”: 0.57.
Under “normalised enrichment score”, `PKPLMKLRFDIEG [K5M]` is recorded as -0.574.
Under “normalised enrichment score”, `PKPLKKLRFDIEW [G13W]` is recorded as 0.0219.
Under “normalised enrichment score”, `PKPMKKLRFDIEG [L4M]` is recorded as 0.85.
For `PKPLKKLFFDIEG [R8F]`, “normalised enrichment score” read 0.622.

Block 3
Target: XBP1, bZIP domain (human)
Method: DHFR protein complementation
Sample: yeast
Setting: single substitutions, most at no-binding floor
Relative to: wild-type JUN-FOS pair
Reading: higher = stronger binding
Parent: JUN, bZIP domain (human); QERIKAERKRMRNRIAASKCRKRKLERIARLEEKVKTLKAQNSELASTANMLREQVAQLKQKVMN; partner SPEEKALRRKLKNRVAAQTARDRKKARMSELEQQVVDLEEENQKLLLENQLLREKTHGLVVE
`L38C` has a binding fitness of -1.5 natural log.
`R30F` gave a binding fitness of -0.275 natural log.
With `I28N` the binding fitness was -1.49 natural log.
For `A46W`, the binding fitness was -1.29 natural log.
With `N42Q` the binding fitness was -1.25 natural log.
With `N42C` the binding fitness was -1.39 natural log.
The binding fitness of `K39V` is reported as -1.22 natural log.
With `L38P` the binding fitness was -1.51 natural log.
With `K34A` the binding fitness was -1.27 natural log.
`S43Y` gave a binding fitness of -0.804 natural log.
`A46H` has a binding fitness of -0.569 natural log.
For `K36D`, the binding fitness was -1.13 natural log.
`N42K` has a binding fitness of -1.31 natural log.
`T48H` has a binding fitness of -0.947 natural log.
`V56Y` gave a binding fitness of -0.507 natural log.
The binding fitness of `V35Y` is reported as -1.35 natural log.
`L45E` gave a binding fitness of -1.48 natural log.

Block 4
Target: Sal-like protein 4, full length isoform A (SALL4, Homo sapiens, UniProt Q9UJQ4, residues 1-1053)
Chain of UniProt Q9UJQ4 (whole entry, looked up): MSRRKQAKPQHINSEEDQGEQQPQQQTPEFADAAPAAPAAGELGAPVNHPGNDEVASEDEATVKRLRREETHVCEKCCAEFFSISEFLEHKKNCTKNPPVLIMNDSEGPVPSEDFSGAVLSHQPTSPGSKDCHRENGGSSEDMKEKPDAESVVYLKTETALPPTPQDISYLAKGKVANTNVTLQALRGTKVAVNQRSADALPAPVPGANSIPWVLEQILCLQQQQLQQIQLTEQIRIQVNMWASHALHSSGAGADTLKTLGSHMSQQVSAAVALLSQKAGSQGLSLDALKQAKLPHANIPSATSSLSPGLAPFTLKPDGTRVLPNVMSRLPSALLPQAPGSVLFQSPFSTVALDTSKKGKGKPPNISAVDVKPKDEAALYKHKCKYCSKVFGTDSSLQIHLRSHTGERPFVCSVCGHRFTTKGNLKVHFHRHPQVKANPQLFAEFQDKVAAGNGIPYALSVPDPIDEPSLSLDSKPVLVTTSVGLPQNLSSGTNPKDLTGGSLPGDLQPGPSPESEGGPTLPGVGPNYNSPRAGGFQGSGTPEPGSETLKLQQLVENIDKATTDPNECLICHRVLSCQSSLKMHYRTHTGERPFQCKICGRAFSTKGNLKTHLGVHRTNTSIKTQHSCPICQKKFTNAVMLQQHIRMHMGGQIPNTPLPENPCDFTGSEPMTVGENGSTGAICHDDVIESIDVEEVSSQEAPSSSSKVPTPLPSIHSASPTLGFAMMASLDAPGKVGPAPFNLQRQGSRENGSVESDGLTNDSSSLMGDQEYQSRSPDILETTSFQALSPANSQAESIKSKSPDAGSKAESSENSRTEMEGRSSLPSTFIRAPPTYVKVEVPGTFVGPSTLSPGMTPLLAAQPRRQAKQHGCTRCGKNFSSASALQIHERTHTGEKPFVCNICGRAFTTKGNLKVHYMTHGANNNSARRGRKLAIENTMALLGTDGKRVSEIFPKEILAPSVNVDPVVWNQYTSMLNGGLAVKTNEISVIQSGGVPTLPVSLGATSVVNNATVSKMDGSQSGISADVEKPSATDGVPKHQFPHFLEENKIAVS
Method: universal PBM
Molecule type: double-stranded DNA, one strand shown
Sample: in vitro
Tested at: 600 nM
Setting: 8-mer, flanks averaged, mean of replicates
Reading: higher = stronger binding
The E-score of `CCGCCTCC` is reported as -0.192.
For `GATCCTTA`, the E-score was 0.0111.
`CACTCATC` gave an E-score of 0.0882.
`CAAACGAA` gave an E-score of 0.102.
With `CACGTGGA` the E-score was -0.0176.
With `CCGTGACG` the E-score was -0.172.
With `ATCGATTG` the E-score was 0.151.
The E-score of `ACAACCAG` is reported as 0.0173.
With `CTATGATC` the E-score was 0.0906.
`CCCTACTA` has an E-score of -0.127.
With `CCCCCGAA` the E-score was -0.147.
The E-score of `CAGTAGTA` is reported as 0.0556.
`CCCGGAAC` gave an E-score of -0.274.
For `CCTGTAGC`, the E-score was -0.11.
The E-score of `GCTTCGTA` is reported as 0.118.
`AGGCATCA` gave an E-score of -0.114.
`TAAAACAA` has an E-score of 0.321.
With `GAGTCATC` the E-score was -0.153.

Block 5
Target: Ras GTPase-activating protein-binding protein 1, full length (G3BP1, Homo sapiens, UniProt Q13283)
Chain of UniProt Q13283 (whole entry, looked up): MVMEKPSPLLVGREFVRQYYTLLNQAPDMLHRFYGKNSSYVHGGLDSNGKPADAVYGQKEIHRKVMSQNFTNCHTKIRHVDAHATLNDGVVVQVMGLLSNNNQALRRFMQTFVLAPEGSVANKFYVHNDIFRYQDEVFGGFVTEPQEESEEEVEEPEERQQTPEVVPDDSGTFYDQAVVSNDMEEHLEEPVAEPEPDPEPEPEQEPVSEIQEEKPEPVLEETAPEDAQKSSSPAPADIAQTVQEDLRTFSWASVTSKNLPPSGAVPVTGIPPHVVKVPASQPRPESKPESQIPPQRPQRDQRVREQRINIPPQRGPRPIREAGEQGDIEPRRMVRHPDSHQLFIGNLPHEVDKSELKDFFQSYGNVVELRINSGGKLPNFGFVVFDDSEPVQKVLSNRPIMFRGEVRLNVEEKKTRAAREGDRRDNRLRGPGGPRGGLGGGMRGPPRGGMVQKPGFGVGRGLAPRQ
Method: RNA Bind-n-Seq
Molecule type: RNA
Sample: in vitro
Tested at: 200 nM
Setting: whole 134-nt RNA, ends assumed
With: 150 mM LiCl
Relative to: input library
Reading: higher = stronger binding
All molecules: 7-deaza-guanosine replaces G
With `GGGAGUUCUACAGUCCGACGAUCGUCCUGUGCUACACAUCGUAUGUACCGAAUCGGGGAGGGGAAAGGGGUUUUUUUGGGGAAAGUAUUAUGUUACGCCGUUCGGAUCUGCACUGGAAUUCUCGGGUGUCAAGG` the log2 enrichment was 0.743.
`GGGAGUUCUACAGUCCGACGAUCUCCUGUGCUACACAUCGUAUGUACCGAAUCGGGAAAAAAAGGGUUUGGGUUUUUUUGGGAAAGUAUUAUGUUACGCCGUUCGGAUCUGCAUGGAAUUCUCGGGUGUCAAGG` has a log2 enrichment of -0.765.
`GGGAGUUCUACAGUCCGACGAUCCUCAAGUCCUGUGCUACACAUCGUAUGUACCGAAUCGGAAAAAGGUGGUUUGGAAAGUAUUAUGUUACGCCGUUCGGAUCUGCACUUCCAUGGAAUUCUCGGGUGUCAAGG` has a log2 enrichment of -0.286.
`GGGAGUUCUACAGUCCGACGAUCUCAAGUCCUGUGCUACACAUCGUAUGUACCGAAUCGGGCCGGGCCGGGGCCGGGGAAAGUAUUAUGUUACGCCGUUCGGAUCUGCACUUCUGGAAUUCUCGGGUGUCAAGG` gave a log2 enrichment of -0.168.
`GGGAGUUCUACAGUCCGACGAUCGUCCUGUGCUACACAUCGUAUGUACCGAAUCGGGGAAAAAGGGAAAAAGGAAAAAGGGAAAGUAUUAUGUUACGCCGUUCGGAUCUGCACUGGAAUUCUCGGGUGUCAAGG` gave a log2 enrichment of 0.00877.
The log2 enrichment of `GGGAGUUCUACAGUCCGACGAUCCUCAAGUCCUGUGCUACACAUCGUAUGUACCGAAUCGGGCCGGCCGGGCCGGGAAAGUAUUAUGUUACGCCGUUCGGAUCUGCACUUCCAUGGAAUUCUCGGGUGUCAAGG` is reported as 0.742.
For `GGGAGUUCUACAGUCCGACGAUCCACAGACAACACGCACCCACACAGACACAGAGGGAAGGGGAUGGGAUGGGGACAGGGUGCACAGCAGGGCGGGGUAGGACCCCAGCCCCUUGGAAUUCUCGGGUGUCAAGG`, the log2 enrichment was -0.904.
`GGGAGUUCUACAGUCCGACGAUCUUUUUUGUAGUAGGGAGAUCCUUGAUCAUCAGGAUGGUAAUGUAGAAGAUGAUGGGCUUACAGGACUCCUAAGGCUUGCAACAAGUGUUGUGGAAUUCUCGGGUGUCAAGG` gave a log2 enrichment of 0.0996.

Single results of other studies
`PhoQ, residues 284 288 289 292 302 303 SLCLSL` gave a fold induction of 2.41 (PhoP, residues 12 14 15 18 19 SEGLL (Escherichia coli, UniProt P23836); Sort-seq, refers to: YFP reporter; E. coli; PhoQ-PhoP variant library, with: 10 µM Mg2+; relative to: high Mg2+ state, higher = stronger signaling).
